Experimental data collected from several papers.
Every numbered part comes from another study and shows a few of its results, in no order.
Sequence of UniProt Q8IU85 (whole entry, looked up): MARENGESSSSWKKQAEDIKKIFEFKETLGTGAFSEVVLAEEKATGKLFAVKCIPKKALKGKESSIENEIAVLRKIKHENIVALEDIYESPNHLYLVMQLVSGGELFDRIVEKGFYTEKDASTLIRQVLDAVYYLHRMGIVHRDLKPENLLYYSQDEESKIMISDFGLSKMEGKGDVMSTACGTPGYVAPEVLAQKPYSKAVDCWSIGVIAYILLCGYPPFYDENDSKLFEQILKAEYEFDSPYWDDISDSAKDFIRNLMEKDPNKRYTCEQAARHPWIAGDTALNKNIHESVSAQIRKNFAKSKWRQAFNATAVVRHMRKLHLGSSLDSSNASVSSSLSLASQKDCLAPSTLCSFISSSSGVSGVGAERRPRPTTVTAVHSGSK
Sequence of UniProt P28482 (whole entry, looked up): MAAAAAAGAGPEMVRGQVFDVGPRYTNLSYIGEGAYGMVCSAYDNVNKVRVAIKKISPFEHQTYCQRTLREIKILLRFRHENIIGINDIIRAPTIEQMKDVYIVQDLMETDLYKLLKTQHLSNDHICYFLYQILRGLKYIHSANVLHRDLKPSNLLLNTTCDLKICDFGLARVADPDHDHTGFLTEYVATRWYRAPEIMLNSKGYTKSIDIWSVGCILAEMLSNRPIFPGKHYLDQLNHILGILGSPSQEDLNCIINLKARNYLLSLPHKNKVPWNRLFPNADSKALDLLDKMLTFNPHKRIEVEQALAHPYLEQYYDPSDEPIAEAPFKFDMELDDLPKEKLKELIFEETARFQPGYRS
Sequence of UniProt P37023 (whole entry, looked up): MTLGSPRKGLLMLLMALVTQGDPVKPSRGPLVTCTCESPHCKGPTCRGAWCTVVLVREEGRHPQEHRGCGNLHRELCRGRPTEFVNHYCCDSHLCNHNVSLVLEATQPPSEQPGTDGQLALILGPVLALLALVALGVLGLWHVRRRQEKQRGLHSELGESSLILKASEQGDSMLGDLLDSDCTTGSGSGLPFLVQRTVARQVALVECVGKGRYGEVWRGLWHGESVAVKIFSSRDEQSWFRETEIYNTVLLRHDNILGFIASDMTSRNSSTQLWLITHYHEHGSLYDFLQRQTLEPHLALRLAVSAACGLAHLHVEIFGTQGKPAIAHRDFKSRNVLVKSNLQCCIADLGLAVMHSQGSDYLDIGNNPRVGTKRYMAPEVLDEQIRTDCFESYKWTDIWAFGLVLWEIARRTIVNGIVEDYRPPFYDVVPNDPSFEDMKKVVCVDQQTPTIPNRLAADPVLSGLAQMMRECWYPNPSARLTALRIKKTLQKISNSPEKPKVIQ
Sequence of UniProt Q13554 (whole entry, looked up): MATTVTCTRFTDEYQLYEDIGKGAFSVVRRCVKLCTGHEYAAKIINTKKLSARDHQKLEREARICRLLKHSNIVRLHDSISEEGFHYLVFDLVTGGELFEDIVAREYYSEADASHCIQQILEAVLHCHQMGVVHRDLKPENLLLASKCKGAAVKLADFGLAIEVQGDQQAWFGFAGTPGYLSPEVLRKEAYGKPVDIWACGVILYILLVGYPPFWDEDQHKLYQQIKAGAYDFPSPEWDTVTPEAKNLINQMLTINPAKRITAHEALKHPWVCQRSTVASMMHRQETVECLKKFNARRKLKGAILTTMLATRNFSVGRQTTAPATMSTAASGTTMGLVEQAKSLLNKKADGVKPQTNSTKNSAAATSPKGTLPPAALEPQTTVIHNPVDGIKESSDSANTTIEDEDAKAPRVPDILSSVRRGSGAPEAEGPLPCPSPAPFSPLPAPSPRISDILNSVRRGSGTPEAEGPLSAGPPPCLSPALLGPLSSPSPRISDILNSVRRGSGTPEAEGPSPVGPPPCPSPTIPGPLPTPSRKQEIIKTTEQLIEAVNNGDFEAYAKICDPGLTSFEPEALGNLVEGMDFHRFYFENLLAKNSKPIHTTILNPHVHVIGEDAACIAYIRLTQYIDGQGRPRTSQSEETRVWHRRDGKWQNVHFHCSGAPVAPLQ
Sequence of UniProt Q13555 (whole entry, looked up): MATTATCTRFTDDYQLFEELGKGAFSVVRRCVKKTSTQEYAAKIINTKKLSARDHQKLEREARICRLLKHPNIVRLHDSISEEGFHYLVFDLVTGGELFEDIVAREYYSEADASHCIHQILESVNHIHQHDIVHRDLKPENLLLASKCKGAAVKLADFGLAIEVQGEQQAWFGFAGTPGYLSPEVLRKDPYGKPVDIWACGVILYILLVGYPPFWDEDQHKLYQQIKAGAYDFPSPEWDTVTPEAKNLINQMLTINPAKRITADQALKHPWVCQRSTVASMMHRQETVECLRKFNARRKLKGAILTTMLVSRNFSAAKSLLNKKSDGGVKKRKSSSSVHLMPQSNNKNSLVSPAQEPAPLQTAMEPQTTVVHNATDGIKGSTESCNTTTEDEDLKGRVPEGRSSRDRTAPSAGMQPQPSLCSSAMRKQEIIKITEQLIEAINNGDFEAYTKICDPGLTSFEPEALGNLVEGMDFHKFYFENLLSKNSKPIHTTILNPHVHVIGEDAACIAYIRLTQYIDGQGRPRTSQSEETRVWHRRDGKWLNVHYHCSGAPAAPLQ
Sequence of UniProt P06213 (whole entry, looked up): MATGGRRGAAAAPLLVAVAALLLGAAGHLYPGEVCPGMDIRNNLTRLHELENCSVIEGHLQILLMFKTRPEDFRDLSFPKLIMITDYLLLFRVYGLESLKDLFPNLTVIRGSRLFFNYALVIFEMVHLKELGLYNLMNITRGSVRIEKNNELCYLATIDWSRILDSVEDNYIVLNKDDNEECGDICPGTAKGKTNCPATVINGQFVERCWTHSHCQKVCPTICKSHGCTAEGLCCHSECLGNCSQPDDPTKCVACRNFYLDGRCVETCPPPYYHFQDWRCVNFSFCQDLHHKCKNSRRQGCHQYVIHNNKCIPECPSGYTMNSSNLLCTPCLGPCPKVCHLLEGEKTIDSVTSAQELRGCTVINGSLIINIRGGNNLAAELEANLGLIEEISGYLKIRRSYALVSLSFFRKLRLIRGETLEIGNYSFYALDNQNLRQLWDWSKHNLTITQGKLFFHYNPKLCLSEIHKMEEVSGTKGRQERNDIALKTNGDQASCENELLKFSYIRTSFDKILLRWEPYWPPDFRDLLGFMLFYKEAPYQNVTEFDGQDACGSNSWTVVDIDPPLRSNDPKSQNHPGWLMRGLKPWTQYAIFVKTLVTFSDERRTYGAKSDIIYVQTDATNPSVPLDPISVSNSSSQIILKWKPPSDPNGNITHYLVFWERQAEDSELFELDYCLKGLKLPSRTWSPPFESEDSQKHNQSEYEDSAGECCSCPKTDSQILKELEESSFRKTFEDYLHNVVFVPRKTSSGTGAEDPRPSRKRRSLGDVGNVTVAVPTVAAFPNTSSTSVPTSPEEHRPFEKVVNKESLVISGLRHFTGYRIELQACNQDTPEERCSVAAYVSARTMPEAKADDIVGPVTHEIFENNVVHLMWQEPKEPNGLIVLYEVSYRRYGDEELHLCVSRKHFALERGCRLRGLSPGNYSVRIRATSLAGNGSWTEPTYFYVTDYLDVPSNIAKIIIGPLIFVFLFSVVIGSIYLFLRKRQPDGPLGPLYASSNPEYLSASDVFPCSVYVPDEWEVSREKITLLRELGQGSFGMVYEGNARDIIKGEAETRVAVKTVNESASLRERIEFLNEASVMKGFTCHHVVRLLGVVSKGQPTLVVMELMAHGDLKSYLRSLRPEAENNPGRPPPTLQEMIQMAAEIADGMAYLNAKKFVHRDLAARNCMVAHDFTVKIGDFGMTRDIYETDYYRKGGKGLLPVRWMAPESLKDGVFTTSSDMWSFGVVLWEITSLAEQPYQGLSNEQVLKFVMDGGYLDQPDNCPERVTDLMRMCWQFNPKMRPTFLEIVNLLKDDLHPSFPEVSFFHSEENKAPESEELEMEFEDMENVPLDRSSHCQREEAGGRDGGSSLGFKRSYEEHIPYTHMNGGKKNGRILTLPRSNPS

Set 1
Cell line: HaCaT
Concentration: 100 µM
Time: 36 h
For CCOc1nc2cccc(C(=O)O)c2n1Cc1ccc(-c2ccccc2-c2noc(=O)[nH]2)cc1, the viability was 88.8%.
The viability of CC[C@@]1(O)C(=O)OCc2c1cc1n(c2=O)Cc2cc3c(CN(C)C)c(O)ccc3nc2-1 is reported as 107%.
CCN1CCN(c2cc3c(cc2F)c(=O)c(C(=O)O)cn3C2CC2)CC1 gave a viability of 86.8%.
With CC(C)NCC(O)COc1cccc2[nH]c3ccccc3c12 (stereo not shown) the viability was 6.29%.
For CC(c1cc2ccccc2s1)N(O)C(N)=O (stereo not shown), the viability was 81.5%.
With CO[C@H]1C(=O)[C@]2(C)[C@@H](OC)C[C@H]3OC[C@@]3(OC(C)=O)[C@H]2[C@H](OC(=O)c2ccccc2)[C@]2(O)C[C@H](OC(=O)[C@H](O)[C@@H](NC(=O)OC(C)(C)C)c3ccccc3)C(C)=C1C2(C)C the viability was 64.7%.

Set 2
SMILES: Nc1cnc(N2CCc3cc(S(=O)(=O)Nc4c(F)cc(Cl)cc4F)cc(N4CCCC4=O)c32)nc1
Concentration: 1 µM
Calcium/calmodulin-dependent protein kinase type 1D (CAMK1D, Homo sapiens, UniProt Q8IU85); cell-free assay, competition with immobilised ligand — remaining binding: 97%.
It gave 86% for remaining binding (Activin receptor type-1-like (ACVRL1, Homo sapiens, UniProt P37023); cell-free assay, competition with immobilised ligand).
The remaining binding was 100% (Mitogen-activated protein kinase 1 (MAPK1, Homo sapiens, UniProt P28482); cell-free assay, competition with immobilised ligand).
It gave 89% for remaining binding (Insulin receptor (INSR, Homo sapiens, UniProt P06213); cell-free assay, competition with immobilised ligand).
It gave 100% for remaining binding (Serine/threonine-protein kinase MRCK gamma (CDC42BPG, Homo sapiens, UniProt Q6DT37); competition binding).
The remaining binding was 89% (Dual specificity tyrosine-phosphorylation-regulated kinase 2 (DYRK2, Homo sapiens, UniProt Q92630); cell-free assay, competition with immobilised ligand).
For Calcium/calmodulin-dependent protein kinase type II subunit gamma (CAMK2G, Homo sapiens, UniProt Q13555); cell-free assay, competition with immobilised ligand: remaining binding read 100%.

Set 3
Target: Mitogen-activated protein kinase kinase kinase 2 (MAP3K2, Homo sapiens, UniProt Q9Y2U5)
Sequence of UniProt Q9Y2U5 (whole entry, looked up): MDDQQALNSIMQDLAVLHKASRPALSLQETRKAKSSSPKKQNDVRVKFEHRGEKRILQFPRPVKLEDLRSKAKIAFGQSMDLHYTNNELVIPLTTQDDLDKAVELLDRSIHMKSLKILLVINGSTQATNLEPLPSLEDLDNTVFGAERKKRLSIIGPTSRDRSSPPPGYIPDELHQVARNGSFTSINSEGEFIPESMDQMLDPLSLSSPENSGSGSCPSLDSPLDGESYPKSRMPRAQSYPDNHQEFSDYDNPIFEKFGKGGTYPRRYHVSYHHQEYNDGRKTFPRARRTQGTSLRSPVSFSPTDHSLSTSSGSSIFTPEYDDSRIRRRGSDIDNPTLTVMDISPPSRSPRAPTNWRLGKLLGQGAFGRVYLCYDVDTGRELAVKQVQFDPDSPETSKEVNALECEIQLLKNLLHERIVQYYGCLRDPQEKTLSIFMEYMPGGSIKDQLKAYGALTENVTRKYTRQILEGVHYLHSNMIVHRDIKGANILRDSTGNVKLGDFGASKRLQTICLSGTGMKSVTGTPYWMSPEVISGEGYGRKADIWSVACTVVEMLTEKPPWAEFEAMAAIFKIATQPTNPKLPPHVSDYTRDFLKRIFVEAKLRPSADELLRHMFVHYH
Read-out: enzyme activity
Mode: inhibitor
Concentration: 0.5 µM
Baseline: control
O=c1c2ccccc2[nH]c(=S)n1CCN1CCC(=C(c2ccc(F)cc2)c2ccc(F)cc2)CC1 has a remaining activity of 99.6%.
Cc1ccc(Nc2nccc(N(C)c3ccc4c(C)n(C)nc4c3)n2)cc1S(N)(=O)=O gave a remaining activity of 110%.
The remaining activity of CC(C)[C@H](CO)Nc1nc(Nc2cc(N)cc(Cl)c2)c2ncn(C(C)C)c2n1 is reported as 83.1%.
Cc1nc(-c2ccccc2)c(-c2ccncc2)o1 gave a remaining activity of 102%.
With O=S(=O)(c1cccc2cnccc12)N1CCCNCC1 the remaining activity was 77.8%.
The remaining activity of Cn1sc(=O)n(Cc2ccccc2)c1=O is reported as 94.7%.
COc1cc2nccc(Oc3ccc(NC(=S)NC(=O)c4ccccc4C)cc3)c2cc1OC gave a remaining activity of 83.1%.
With COc1ccc(CNC(=O)Nc2ncc([N+](=O)[O-])s2)cc1 the remaining activity was 94.1%.
With O=C(Nc1cccc(Nc2cc(Nc3cccc(C(F)(F)F)c3)ncn2)c1)C1CC1 the remaining activity was 91.8%.
The remaining activity of OCC(O)CCON=C1C(c2c(O)[nH]c3ccccc23)=Nc2ccccc21 (stereo not shown) is reported as 60.6%.
For Cn1c2ccccc2c2c3c(c4c5ccccc5n(CCC#N)c4c21)CNC3=O, the remaining activity was 2.96%.
The remaining activity of O=C1NC(=O)C(c2cn(CCCn3ccnc3)c3ccccc23)=C1Nc1ccccc1 is reported as 83.3%.
With COc1cc2ncnc(Nc3ccc(Oc4ccccc4)cc3)c2cc1OC the remaining activity was 102%.
For COc1ccc(C(=O)Nc2sc3c(c2C(N)=O)CCCC3)cc1OC, the remaining activity was 105%.
O=C1NC(=O)C(c2cn(CCCO)c3ncccc23)=C1c1cnccn1 gave a remaining activity of 96.9%.

Set 4
Cell line: mouse MPNST tumor cells
Method: high-content nuclear imaging
Refers to: cell number
Concentration: 10 µM
Time: 12 h
Setting: mean of 2 replicates
Baseline: plate mean
Reading: higher = more cells
For COc1ccc(C2(CNC(=O)c3ccc(NC(=O)c4ccco4)cc3)CCOCC2)cc1, the nuclei count was -0.146 z-score.
Oc1cccc(-c2nc(N3CCOCC3)c3oc4ncccc4c3n2)c1 has a nuclei count of -0.309 z-score.
The nuclei count of Cc1nnc(-c2ccc3occ(-c4ccc([S+](C)[O-])cc4)c3c2)o1 (stereo not shown) is reported as -1.42 z-score.
C1CCC(C(CC2CCCCN2)C2CCCCC2)CC1 (stereo not shown) gave a nuclei count of -5.36 z-score.
CCOc1c2c(c(OCC)c3ccccc13)C(=O)N(c1ccc(CC(=O)NS(=O)(=O)c3ccccc3)cc1)C2 gave a nuclei count of 1.99 z-score.

Single results of other studies
With Cc1cc(-c2ccc(/N=N/c3ccc4c(S(=O)(=O)O)cc(S(=O)(=O)O)c(N)c4c3O)c(C)c2)ccc1/N=N/c1ccc2c(S(=O)(=O)O)cc(S(=O)(=O)O)c(N)c2c1O the IC50 was 4.21 µM (Calcium/calmodulin-dependent protein kinase type II subunit beta (CAMK2B, Homo sapiens, UniProt Q13554); enzyme activity, inhibitor).

A few entries again (set 3):
Cc1ccc(Nc2nccc(N(C)c3ccc4c(C)n(C)nc4c3)n2)cc1S(N)(=O)=O gave a remaining activity of 110%.
The remaining activity of OCC(O)CCON=C1C(c2c(O)[nH]c3ccccc23)=Nc2ccccc21 (stereo not shown) is reported as 60.6%.
The remaining activity of CC(C)[C@H](CO)Nc1nc(Nc2cc(N)cc(Cl)c2)c2ncn(C(C)C)c2n1 is reported as 83.1%.
